Results of several laboratories.
Compare with care: the assays were run in different laboratories. ± gives the spread as reported.

CCCC1CCC(C2CCC(c3ccc(F)c(F)c3)CC2)CC1 (centres unmarked)
mean serum concentration (human mother-newborn pairs, maternal serum): 0.33 ng/mL

CC(=O)c1c(C)c2cnc(Nc3ccc(C4CCN(CCS(C)(=O)=O)CC4)cn3)nc2n(C2CCCC2)c1=O
mean residence time (human patients, plasma; oral, 100 mg twice daily, day 1 single dose, with: fulvestrant): 5.83 h

COc1cc(C(=O)NC2CCN(C)CC2)c(F)cc1Nc1ncc(C(F)(F)F)c(Oc2cccc3c2C(=O)N(C)C3)n1
mean residence time at steady state (human patients, plasma; oral, 100 mg once daily repeated, geometric mean): 25.4 h

Cc1cn([C@H]2C[C@H](N=[N+]=[N-])[C@@H](COP(=O)(O)O)O2)c(=O)[nH]c1=O
mean residence time (measured: phosphorylated zidovudine metabolites; human, peripheral blood mononuclear cells; 600 mg zidovudine, single dose): 18.7 ± 12.9 h

CC(C)(C)c1cc(-n2nc3ccccc3n2)c(O)c(C(C)(C)C)c1
mean daily dermal uptake (exposure assessment; human, age 16-21 years; foundation): 0.96 ng/kg body weight/day

O=C([O-])CN1CCN(CC(=O)[O-])CCN(CC(=O)NCC2CCC(C(=O)N[C@@H](Cc3ccc4ccccc4c3)C(=O)NCCCC[C@H](NC(=O)N[C@@H](CCC(=O)O)C(=O)O)C(=O)O)CC2)CCN(CC(=O)[O-])CC1.[177Lu+3] (some centres unmarked)
mean measured GFR (99mTc-DTPA plasma clearance; human; after 3 cycles): 45 mL/min/1.73 m2

Cn1ncc(-c2nc(N[C@H]3CC[C@H](N)CC3)ncc2Cl)c1CC1CC1
mean half-life (human patients; all dose levels): 28 h

CCC[C@H]1CC[C@H](c2ccc(-c3ccc(F)cc3)cc2)CC1
mean serum concentration (human mother-newborn pairs, cord serum): 0.46 ng/mL
